Measurements of several laboratories.
Every numbered part comes from another study and shows a few of its results, in no order. Positions count from the first letter of the parent shown.

Set 1 — method: RNA Bind-n-Seq; form: RNA; matrix: in vitro; concentration: 20 nM; setting: 6-mer, flanks averaged, single round; together with: 150 mM LiCl; relative to: input library; reading: higher = stronger binding
Target: TAR DNA-binding protein 43, full length, His tag (TARDBP, Homo sapiens, UniProt Q13148, residues 1-414)
`UAUUCU` — result for “6-mer enrichment (R)”: 0.979.
`AGCACA`: “6-mer enrichment (R)” 0.877.
`GAGUAU`: “6-mer enrichment (R)” 1.08.
`CAUGGU` — result for “6-mer enrichment (R)”: 0.998.
`CCUAGC` — result for “6-mer enrichment (R)”: 0.88.
Under “6-mer enrichment (R)”, `CCUCCU` is recorded as 1.02.
Under “6-mer enrichment (R)”, `AUGUGG` is recorded as 1.35.
Under “6-mer enrichment (R)”, `UGGUCG` is recorded as 1.08.
`GAUGUG`: “6-mer enrichment (R)” 1.37.
`GGUGUC`: “6-mer enrichment (R)” 1.11.
For `GCACGG`, “6-mer enrichment (R)” read 0.975.
`ACUCUG`: “6-mer enrichment (R)” 0.86.
`GCCGAC` — result for “6-mer enrichment (R)”: 0.871.
`GACAAC`: “6-mer enrichment (R)” 0.817.
`CAGCCA` — result for “6-mer enrichment (R)”: 0.901.
`GCAUCC` — result for “6-mer enrichment (R)”: 0.895.

Set 2 — method: protein binding microarray; form: double-stranded DNA, one strand shown; matrix: in vitro; concentration: not given; relative to: not given; reading: higher = stronger binding
Target: Histone acetyltransferase KAT6A, both winged helices, GST fusion (KAT6A, Homo sapiens, UniProt Q92794, residues 1-181)
Setting: 8-mer, flanks averaged, mean of 2 arrays, mostly near background
Target sequence (chain): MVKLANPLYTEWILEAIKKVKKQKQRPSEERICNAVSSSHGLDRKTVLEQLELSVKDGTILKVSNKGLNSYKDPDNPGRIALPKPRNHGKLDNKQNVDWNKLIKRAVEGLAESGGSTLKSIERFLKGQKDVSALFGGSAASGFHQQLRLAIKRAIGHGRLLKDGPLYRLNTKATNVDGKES
`CTGTATGA` has an E-score of 0.135.
`ATACACCG` has an E-score of 0.147.
`CCGTACGC` has an E-score of 0.366.
`CCTGACCG` has an E-score of 0.143.
`GAACACCC` gave an E-score of -0.0933.
The E-score of `ACCCACAT` is reported as -0.14.
For `AACGGTCT`, the E-score was 0.0516.
The E-score of `CCGCGCGG` is reported as 0.419.
The E-score of `ACGGTGCT` is reported as 0.114.
`AGCAGCAG` gave an E-score of -0.25.
The E-score of `AATTAGTG` is reported as -0.0641.
`GTGATTCA` has an E-score of -0.14.
For `CCGCGTTC`, the E-score was 0.319.
The E-score of `TAGACACA` is reported as -0.101.
For `CAGTCAGC`, the E-score was -0.0531.
With `AAGCGAAT` the E-score was 0.0735.
The E-score of `TACCATAA` is reported as -0.08.
`AAAAGGGA` gave an E-score of -0.266.
For `GCCGACCA`, the E-score was 0.122.
For `GCCTTGAA`, the E-score was -0.167.
For `CCCGCCAG`, the E-score was 0.148.
For `CGCTTTGC`, the E-score was 0.18.

Set 3 — target: CCNE2, cyclin fold, Cln2 fusion (human); method: yeast growth competition, sequencing; matrix: yeast; setting: strong parent motif; relative to: not given; reading: higher = stronger binding
Starting sequence: BRCA2 docking peptide (human); PSIKRNLLNEFDR; partner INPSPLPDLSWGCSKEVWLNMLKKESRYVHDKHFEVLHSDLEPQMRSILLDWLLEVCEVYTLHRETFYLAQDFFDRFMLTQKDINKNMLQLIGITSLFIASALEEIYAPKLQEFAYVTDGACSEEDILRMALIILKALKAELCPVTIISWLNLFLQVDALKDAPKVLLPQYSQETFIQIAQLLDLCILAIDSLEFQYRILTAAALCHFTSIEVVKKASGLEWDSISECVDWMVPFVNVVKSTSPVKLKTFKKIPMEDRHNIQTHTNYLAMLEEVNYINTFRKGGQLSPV
Under “normalised enrichment score”, `PSIKRNLLNEQDR [F11Q]` is recorded as 0.316.
`PSIKRNLLNNFDR [E10N]` — result for “normalised enrichment score”: 0.792.
For `PSIKRNLLNEFDY [R13Y]`, “normalised enrichment score” read 1.07.
`PSIKRRLLNEFDR [N6R]` — result for “normalised enrichment score”: 1.29.
Under “normalised enrichment score”, `PSIHRNLLNEFDR [K4H]` is recorded as 0.401.
For `PSIKRNLWNEFDR [L8W]`, “normalised enrichment score” read 0.213.
Under “normalised enrichment score”, `PSIKRNLLNMFDR [E10M]` is recorded as 0.832.
`PFIKRNLLNEFDR [S2F]` — result for “normalised enrichment score”: 0.809.
For `PSIKRNLLNEFDM [R13M]`, “normalised enrichment score” read 1.2.

Other studies, line by line
For `PhoQ, residues 284 288 289 292 302 303 ALVSVA`, the fold induction was 4.44 (PhoP, residues 12 14 15 18 19 TPWLV (Escherichia coli, UniProt P23836); Sort-seq, item: YFP reporter; E. coli; PhoQ-PhoP variant library, together with: 10 µM Mg2+; relative to: high Mg2+ state, higher = stronger signaling).

Some of these lines once more (set 1):
`UAUUCU` — result for “6-mer enrichment (R)”: 0.979.
`AGCACA`: “6-mer enrichment (R)” 0.877.
`GAGUAU`: “6-mer enrichment (R)” 1.08.
`CAUGGU` — result for “6-mer enrichment (R)”: 0.998.
`CCUAGC` — result for “6-mer enrichment (R)”: 0.88.
Under “6-mer enrichment (R)”, `CCUCCU` is recorded as 1.02.
